# Results collected from several papers.
# Numbered parts are unrelated; each lists some results of a single study. Positions count from the first letter of the parent shown.

# Block 1 — target: CCNB1, cyclin fold, Cln2 fusion (human); technique: yeast growth competition, sequencing; sample: yeast; notes: strong parent motif; relative to: not given; reading: higher = stronger binding
# Starting sequence: viral docking peptide; YKVKRRLVFGADD; partner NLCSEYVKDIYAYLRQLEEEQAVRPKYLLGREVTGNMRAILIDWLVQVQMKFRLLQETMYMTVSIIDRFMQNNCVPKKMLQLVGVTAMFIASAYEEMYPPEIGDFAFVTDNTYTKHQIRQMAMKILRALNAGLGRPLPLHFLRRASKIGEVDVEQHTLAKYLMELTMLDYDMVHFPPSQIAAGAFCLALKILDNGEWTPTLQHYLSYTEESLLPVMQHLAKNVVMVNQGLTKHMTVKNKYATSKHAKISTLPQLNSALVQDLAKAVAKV
Variant,normalised enrichment score
V8R,1.33
F9V,0.648
K4L,0.527
V8A,1.78
V3W,0.545
G10H,3.5
K2C,4.54
R5T,1.39
A11G,3.95
K4G,1.63
F9K,0.126
F9D,0.594
G10Y,3.04
A11P,4.6
K2G,4.75
R6S,1.01
R5M,1.78
R6I,0.677

# Block 2 — effect on: binding; technique: phage display NGS; form: peptide; notes: panning round 2; relative to: input library
# Target: UDP-N-acetylglucosamine--peptide N-acetylglucosaminyltransferase 110 kDa subunit (OGT, Homo sapiens, UniProt O15294)
# Construct (O15294 1-1046): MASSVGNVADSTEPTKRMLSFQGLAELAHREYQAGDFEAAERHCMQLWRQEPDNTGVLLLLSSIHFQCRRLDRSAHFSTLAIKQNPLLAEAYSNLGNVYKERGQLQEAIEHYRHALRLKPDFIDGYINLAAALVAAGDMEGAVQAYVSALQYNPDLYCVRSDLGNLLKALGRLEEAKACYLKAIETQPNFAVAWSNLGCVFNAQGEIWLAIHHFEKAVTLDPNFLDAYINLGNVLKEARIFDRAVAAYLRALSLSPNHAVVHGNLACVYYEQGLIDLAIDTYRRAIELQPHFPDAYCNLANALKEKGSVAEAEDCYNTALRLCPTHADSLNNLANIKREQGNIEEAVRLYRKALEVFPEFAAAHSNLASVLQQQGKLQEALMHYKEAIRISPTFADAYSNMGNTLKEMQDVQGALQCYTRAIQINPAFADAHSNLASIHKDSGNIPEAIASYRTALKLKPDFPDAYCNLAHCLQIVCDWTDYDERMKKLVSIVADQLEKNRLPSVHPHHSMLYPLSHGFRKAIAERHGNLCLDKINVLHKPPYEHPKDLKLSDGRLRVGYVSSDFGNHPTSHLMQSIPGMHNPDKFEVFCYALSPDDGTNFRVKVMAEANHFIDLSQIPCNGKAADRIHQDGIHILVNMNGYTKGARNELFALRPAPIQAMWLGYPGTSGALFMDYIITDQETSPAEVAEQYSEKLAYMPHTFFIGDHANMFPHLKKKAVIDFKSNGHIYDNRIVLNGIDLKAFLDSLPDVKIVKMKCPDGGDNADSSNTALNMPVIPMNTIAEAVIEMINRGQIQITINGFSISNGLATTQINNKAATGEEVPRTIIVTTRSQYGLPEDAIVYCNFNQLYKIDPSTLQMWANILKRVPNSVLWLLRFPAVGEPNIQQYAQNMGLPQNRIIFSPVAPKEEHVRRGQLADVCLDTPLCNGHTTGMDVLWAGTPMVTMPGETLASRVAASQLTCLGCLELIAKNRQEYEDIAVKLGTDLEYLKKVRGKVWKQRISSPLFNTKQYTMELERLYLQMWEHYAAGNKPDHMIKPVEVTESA
Sequence,minimum log2 enrichment ratio
HQRMDTSNDWKHHH,2.53
SSNEPHYPPKYQMVI,3.64
QEHQYYRPKYLIEIY,2.29
ASWSRYHVHDHIHDF,2.38

# Block 3 — target: inorganic phosphate, free oxyanion; technique: microfluidic competitive inhibition; sample: in vitro, cell-free expressed; tested at: not given; reading: lower = stronger binding
# Notes: derived from inhibition constants, unchanged parent 615000 nM
# Starting sequence: PafA, mature enzyme, eGFP fusion (Elizabethkingia meningoseptica, UniProt Q9KJX5); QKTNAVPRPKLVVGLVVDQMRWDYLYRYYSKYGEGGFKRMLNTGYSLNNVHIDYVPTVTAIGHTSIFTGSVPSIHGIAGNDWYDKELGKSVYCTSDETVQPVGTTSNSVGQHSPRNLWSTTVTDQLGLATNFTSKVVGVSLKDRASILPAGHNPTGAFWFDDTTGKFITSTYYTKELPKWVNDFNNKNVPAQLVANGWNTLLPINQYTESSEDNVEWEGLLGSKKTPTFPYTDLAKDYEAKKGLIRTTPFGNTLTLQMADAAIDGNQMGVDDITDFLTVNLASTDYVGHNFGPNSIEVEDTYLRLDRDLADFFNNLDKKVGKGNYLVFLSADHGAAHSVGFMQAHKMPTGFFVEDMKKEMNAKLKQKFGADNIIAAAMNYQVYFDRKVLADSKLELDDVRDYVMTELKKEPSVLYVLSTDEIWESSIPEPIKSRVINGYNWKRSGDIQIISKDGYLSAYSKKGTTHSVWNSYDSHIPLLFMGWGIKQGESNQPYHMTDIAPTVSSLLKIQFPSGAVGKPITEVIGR
Variant,phosphate dissociation constant
R443G,669 µM
A5V,664 µM
D391V,634 µM
K409V,709 µM

# Block 4 — Variant: H122I; technique: DHFR PCA, deep sequencing; sample: yeast; relative to: wild-type fitted maximum; reading: higher = stronger binding
# Target: ABI1, truncated, D143A, DHFR fusion (Arabidopsis thaliana)
# Notes: methotrexate growth selection, single substitutions
# Starting sequence: PYL1, truncated, DHFR fusion (Arabidopsis thaliana); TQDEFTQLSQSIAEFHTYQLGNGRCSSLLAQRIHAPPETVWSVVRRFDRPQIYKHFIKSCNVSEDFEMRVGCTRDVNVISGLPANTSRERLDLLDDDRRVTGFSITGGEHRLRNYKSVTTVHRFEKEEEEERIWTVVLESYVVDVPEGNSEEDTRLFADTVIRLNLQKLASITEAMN
setting,relative binding score
added: (+)-ABA 200 µM,44.5%
added: (+)-ABA 0.0091 µM,-9.69%
added: (+)-ABA 17 µM,1.84%
added: (+)-ABA 710 µM,59.7%
added: (+)-ABA 2500 µM,80.4%
added: (+)-ABA 0.11 µM,2.99%

# Block 5 — technique: protein-binding microarray; form: double-stranded DNA, one strand shown; sample: in vitro; tested at: not given; reading: higher = stronger binding
# Target: Hepatocyte nuclear factor 3-beta, forkhead domain (FOXA2, Homo sapiens, UniProt Q9Y261, residues 142-269)
# Notes: k-mer, scored over probes, only values ≥0.25
# Residues (chain): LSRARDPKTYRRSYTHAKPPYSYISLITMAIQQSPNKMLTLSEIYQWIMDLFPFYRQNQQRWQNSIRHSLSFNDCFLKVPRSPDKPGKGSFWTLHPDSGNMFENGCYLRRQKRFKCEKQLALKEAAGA
Strand,E-score
ATTCATCA,0.259
CAATGTTA,0.272
CTGGAATA,0.258
TATGTTCA,0.282
AGTTATAT,0.33
AACACAGC,0.269
TACTACAA,0.321
AGTAGAAT,0.284
